Experimental data collected from several papers.
A part holds a random share of what one study measured. Values joined by “and” are separate records of one study, mostly repeats; a detail may differ.

Block 1 — technique: aptamer microarray, sandwich; molecule type: DNA with 2'F-ANA; matrix: in vitro; tested at: 200 nM; added: Cy3 exosite-II aptamer, 400 nM; reading: higher = stronger binding; endpoint: mean fluorescence intensity; strand: GGTTGGTGTGGTTGG
Target: Prothrombin, mature alpha-thrombin (F2, Homo sapiens, UniProt P00734)
Setting: whole 15-mer aptamer, many near background
Modification = 2'F-ANA at 1 2 5 6; result = 56 a.u.
Modification = 2'F-ANA at 1 3 5 7 8 10 11 12 15; result = 68 a.u.
Modification = 2'F-ANA at 2 6 7 11 12; result = 594 a.u.
Modification = 2'F-ANA at 5 6 7 8 9 12 13 14; result = 65.9 a.u.
Modification = 2'F-ANA at 1 3 7 10; result = 87.1 a.u.
Modification = 2'F-ANA at 2 5 6 7 11 14; result = 44.4 a.u.
Modification = 2'F-ANA at 2 4 7 9 10 11 12 13 15; result = 100 a.u.
Modification = 2'F-ANA at 2 3 5 7 9 10 12 15; result = 64.8 a.u.
Modification = 2'F-ANA at 2 8 9 10 11 13 14 15; result = 76.2 a.u.

Block 2 — technique: protein-binding microarray; molecule type: double-stranded DNA, one strand shown; matrix: in vitro; tested at: 250 nM; setting: 60-bp whole probe; added: salmon DNA 0.4 mg/ml; reference: random background probes; reading: higher = stronger binding; endpoint: log fluorescence; constant ends, left off below: GCCTAGCAC … GTCTTGATTCGCTTGACGCTGCTG
Target: Interferon regulatory factor 7, full length, phosphomimetic (IRF7, Homo sapiens, UniProt Q92985, residues 1-503, S101K/S471D/S472D/S475D/S476D/S477D/S483D/S484D/S487D)
Chain of UniProt Q92985 (whole entry, unmodified, looked up): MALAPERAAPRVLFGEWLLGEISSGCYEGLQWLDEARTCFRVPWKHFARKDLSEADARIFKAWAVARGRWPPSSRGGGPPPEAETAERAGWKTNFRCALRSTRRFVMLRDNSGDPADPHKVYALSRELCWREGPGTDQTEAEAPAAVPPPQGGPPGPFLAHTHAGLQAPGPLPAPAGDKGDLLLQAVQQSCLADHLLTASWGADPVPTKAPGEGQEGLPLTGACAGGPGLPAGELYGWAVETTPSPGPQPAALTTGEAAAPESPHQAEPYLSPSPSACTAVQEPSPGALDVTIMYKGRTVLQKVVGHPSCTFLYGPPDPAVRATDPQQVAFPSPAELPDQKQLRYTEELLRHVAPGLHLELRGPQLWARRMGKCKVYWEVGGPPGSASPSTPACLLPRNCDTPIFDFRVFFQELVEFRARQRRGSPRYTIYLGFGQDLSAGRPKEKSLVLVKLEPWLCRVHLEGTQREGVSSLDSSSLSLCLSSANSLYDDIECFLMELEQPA
Strand = GACAATATCAGTATCGAGACGTGCTAG; result = 0.246 z-score
Strand = CGACATCTGCAAGATCCACAAGTGCTA; result = -0.0793 z-score
Strand = TCAGTTTTCATTATTGCACTGTGCTAG; result = 1.3 z-score
Strand = GACGAACTGGGGTTTCGTGACGTGCTA; result = 0.426 z-score
Strand = GACGGTATCGACTATCCGGACGTGCTA; result = 0.279 z-score
Strand = GACGGAATGCTTATCCTGACGTGCTAG; result = -0.763 z-score

Block 3 — technique: RNA Bind-n-Seq; molecule type: RNA; matrix: in vitro; tested at: 1 µM; setting: whole 134-nt RNA, ends assumed; added: 150 mM KCl; reference: input library; reading: higher = stronger binding; endpoint: log2 enrichment
Target: Ras GTPase-activating protein-binding protein 1, RRM domain (G3BP1, Homo sapiens, UniProt Q13283)
Chain of UniProt Q13283 (whole entry, looked up): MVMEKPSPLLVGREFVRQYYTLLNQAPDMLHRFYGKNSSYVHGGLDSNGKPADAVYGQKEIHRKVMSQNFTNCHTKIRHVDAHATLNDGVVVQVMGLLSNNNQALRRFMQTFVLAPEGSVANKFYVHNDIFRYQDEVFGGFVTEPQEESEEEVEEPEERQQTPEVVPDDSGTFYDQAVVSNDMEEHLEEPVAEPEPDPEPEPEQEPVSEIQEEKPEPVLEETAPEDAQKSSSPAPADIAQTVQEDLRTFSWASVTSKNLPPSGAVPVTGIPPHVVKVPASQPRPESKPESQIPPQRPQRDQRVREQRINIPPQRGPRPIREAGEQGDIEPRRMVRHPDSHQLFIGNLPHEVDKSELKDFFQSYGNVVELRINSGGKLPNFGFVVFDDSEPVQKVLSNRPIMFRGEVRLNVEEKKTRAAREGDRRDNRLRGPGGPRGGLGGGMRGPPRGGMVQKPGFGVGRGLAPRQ
Strand = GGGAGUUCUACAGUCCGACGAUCAAGUCCUGUGCUACACAUCGUAUGUACCGAAUCGGGGAGGGGAAAAAGGGGAGGGGAAAGUAUUAUGUUACGCCGUUCGGAUCUGCACUUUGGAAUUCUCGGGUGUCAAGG; result = 0.922
Strand = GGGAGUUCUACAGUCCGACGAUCACCAUGCAGGUGGGCAUCUUUGGGAAGUGGGGCAAGGGGGGGAUGGGGAGGGGGGUAACACUUUGGGAACAGGUGGUCCCAGGUCGUUUCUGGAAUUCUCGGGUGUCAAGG; result = 0.942
Strand = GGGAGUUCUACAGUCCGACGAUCUCAUGUGGAUGAAGCAGAAAAAGAAGCUCAGAAGAAGCCAGCUGAAUCUCAAAAAAUAGAGCGUGAAGAUGCCCUGGCUUUUAAUUCAGCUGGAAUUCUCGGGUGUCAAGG; result = -0.269
Strand = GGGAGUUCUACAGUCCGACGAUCGUCCUGUGCUACACAUCGUAUGUACCGAAUCAAACCCAAAUUUUUUUAAACCCCCAAAAAAGUAUUAUGUUACGCCGUUCGGAUCUGCACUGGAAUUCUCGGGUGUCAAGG; result = -0.801
Strand = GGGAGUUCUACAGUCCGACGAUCUGGGAGGUGGAUUUUGUUUAUUUUUUUAGCUAAUUUCCAGGGGUGGGAAUUUUUUUUUAAUAUGUGUCAUGAAUAAAGUUGUUUUUGAAAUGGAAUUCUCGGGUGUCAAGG; result = 1.41
Strand = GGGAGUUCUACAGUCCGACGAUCCCUCAAGUCCUGUGCUACACAUCGUAUGUACCGAAUCGGGUGGGGUGGGUGGAAAGUAUUAUGUUACGCCGUUCGGAUCUGCACUUCCAGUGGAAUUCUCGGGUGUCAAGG; result = 0.346
Strand = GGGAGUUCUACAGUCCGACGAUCACCAUGCAGGUGGGCAUCUUUGGGAAGUGGGGCAAAAAGGGGAUAGGGAGGGGGGUAACACUUUGGGAACAGGUGGUCCCAGGUCGUUUCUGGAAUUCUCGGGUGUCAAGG; result = -0.401
Strand = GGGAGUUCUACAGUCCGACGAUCCUGUGCUACACAUCGUAUGUACCGAAUCGGGGAAAAAAAGGGGAAAAAAAGGGGAAAGGGGAAAGUAUUAUGUUACGCCGUUCGGAUCUGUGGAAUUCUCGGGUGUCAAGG; result = 0.44
Strand = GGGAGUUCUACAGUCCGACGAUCUGGCCCUGGUGGCAUGCGGGGAGGAAGAGGUGGCCUCAUGGAUCGUGGUGGUCCCGGUGGAAUGUUCAGAGGCGGCCGUGGUGGAGACAGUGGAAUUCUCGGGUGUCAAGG; result = 1.5

Single results of other studies
Molecule = PhoQ, residues 284 288 289 292 302 303 NLMGRA; target = PhoP, residues 12 14 15 18 19 LWHSL (Escherichia coli, UniProt P23836); assay = Sort-seq, measured: YFP reporter; system = E. coli; setting = PhoQ-PhoP variant library, added: 10 µM Mg2+; scale = reference: high Mg2+ state, higher = stronger signaling; endpoint = fold induction; result = 15 and 12

Excerpt of the above (block 3):
Strand = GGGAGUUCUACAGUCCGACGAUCACCAUGCAGGUGGGCAUCUUUGGGAAGUGGGGCAAGGGGGGGAUGGGGAGGGGGGUAACACUUUGGGAACAGGUGGUCCCAGGUCGUUUCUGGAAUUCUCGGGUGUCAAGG; result = 0.942
Strand = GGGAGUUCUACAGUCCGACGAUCCUGUGCUACACAUCGUAUGUACCGAAUCGGGGAAAAAAAGGGGAAAAAAAGGGGAAAGGGGAAAGUAUUAUGUUACGCCGUUCGGAUCUGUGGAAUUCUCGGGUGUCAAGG; result = 0.44
